Results collected from several papers.
Each numbered part is a random draw from the data of one study; scales do not carry over between parts. Substitutions count along the parent as printed.

Block 1
Target: BATF3, bZIP domain (human)
Method: DHFR protein complementation
Matrix: yeast
Notes: single substitutions, most at no-binding floor
Relative to: wild-type JUN-FOS pair
Reading: higher = stronger binding
Parent: JUN, bZIP domain (human); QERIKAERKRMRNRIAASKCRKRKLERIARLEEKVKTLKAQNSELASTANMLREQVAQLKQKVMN; partner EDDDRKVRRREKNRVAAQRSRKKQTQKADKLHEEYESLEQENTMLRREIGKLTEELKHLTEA
| Substitution | binding fitness [natural log] |
| --- | --- |
| E32R | 0.201 |
| Q41H | 0.146 |
| R53F | -0.0678 |
| L31T | 0.187 |
| R53K | 0.252 |
| T37K | 0.244 |
| A49L | 0.192 |
| L31M | 0.24 |
| M51V | 0.217 |
| E44Y | 0.137 |
| V35T | 0.165 |
| R30N | 0.226 |
| I28Y | 0.162 |
| K34D | 0.233 |
| I28R | 0.279 |
| T37N | 0.289 |
| N42Q | 0.0647 |
| E33T | 0.148 |
| K39N | 0.0114 |
| N42G | -0.0423 |
| E32I | 0.0904 |
| L52R | -0.364 |
| E32Q | 0.0841 |
| K39S | 0.155 |
| L38C | 0.0687 |

Block 2
Target: PABPC1L2, full length, GST fusion (mouse, UniProt A0ABA7IW68)
Method: RNAcompete
Form: RNA
Matrix: in vitro
Tested at: 20 nM
Notes: 7-mer, probes averaged, single round
Relative to: mean of 7-mers
Reading: higher = stronger binding
Residues (chain): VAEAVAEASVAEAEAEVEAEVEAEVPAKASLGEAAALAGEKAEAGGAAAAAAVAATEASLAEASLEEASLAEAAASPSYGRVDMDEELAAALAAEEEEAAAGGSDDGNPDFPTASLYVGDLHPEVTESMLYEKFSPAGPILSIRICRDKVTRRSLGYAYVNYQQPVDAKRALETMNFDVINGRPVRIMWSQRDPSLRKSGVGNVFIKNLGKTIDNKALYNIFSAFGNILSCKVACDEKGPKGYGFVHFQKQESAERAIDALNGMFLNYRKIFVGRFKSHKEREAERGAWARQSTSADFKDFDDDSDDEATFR
| Sequence | 7-mer Z-score |
| --- | --- |
| UCGUCUA | -0.461 |
| ACAUACU | -0.11 |
| AUGCUAC | -0.151 |
| UAUCAGG | -0.0935 |
| UACUUUG | -0.26 |
| GUCUCUG | -0.266 |
| CUGCGGA | 0.0243 |
| CUUCGCC | -0.441 |
| AGUGUGA | 0.0732 |
| GCUGGUG | -0.079 |
| AACCGCG | 0.0841 |
| GUUGUUG | -0.367 |
| CAUAUAU | -0.209 |
| UAUGACU | -0.103 |
| CGUUAAC | -0.287 |
| UAUUUAG | 0.216 |
| GGGUACU | 0.129 |
| ACCGUAA | -0.103 |
| GCCUCAC | -0.173 |

Block 3
Target: Max-binding protein MNT, bHLH-zipper, MAX partner unstated (MNT, Homo sapiens, UniProt Q99583, residues 220-300)
Method: protein-binding microarray
Form: double-stranded DNA, one strand shown
Matrix: in vitro
Tested at: not given
Notes: k-mer, scored over probes, only values ≥0.25
Reading: higher = stronger binding
Construct (chain): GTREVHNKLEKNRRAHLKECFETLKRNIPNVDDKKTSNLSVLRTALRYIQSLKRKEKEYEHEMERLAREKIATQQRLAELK
| Sequence | E-score |
| --- | --- |
| AACATGCA | 0.272 |
| CGTGCCGC | 0.376 |
| ATAACATG | 0.321 |
| AAGCGCAC | 0.286 |
| CATGTACG | 0.25 |
| GCATGCGA | 0.409 |
| CATGGTCA | 0.356 |
| ATAACACG | 0.383 |
| CCCACCCG | 0.333 |
| CGCATGTA | 0.396 |
| ATGCGCAT | 0.377 |
| ACATGCAA | 0.281 |
| ACACGCCA | 0.305 |
| CCCACCCA | 0.378 |
| CATGAGGC | 0.363 |
| CGGTCACG | 0.263 |
| ACGCGGCA | 0.334 |
| AAACGTGC | 0.415 |
| CCCCGCAC | 0.362 |
| ACCTCACG | 0.254 |
| CGTGATCC | 0.285 |
| CACGACGC | 0.265 |
| AGCGTGGG | 0.401 |
| GCCCCGCC | 0.302 |
| TCGTGTCA | 0.311 |

Block 4
Target: RNA binding protein fox-1 homolog 2, RRM domain, GST-SBP tag (RBFOX2, Homo sapiens, UniProt O43251-10, residues 100-194)
Method: RNA Bind-n-Seq
Form: RNA
Matrix: in vitro
Tested at: 365 nM
Notes: natural RNA segment, single round, ends assumed
Relative to: no-protein control
Reading: higher = stronger binding
Constant ends, left off below: GGGAGUUCUACAGUCCGACGAUC … UGGAAUUCUCGGGUGCCAA
Construct (chain): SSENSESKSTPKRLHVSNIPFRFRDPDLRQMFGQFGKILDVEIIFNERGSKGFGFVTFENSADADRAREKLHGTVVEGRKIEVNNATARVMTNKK
| Sequence | RBNS enrichment (R) |
| --- | --- |
| CUGGGUAUCUGUCUGGUUCUAUUUUGUUUUGUUAUUAUCCUUGUAUUUCCAGCCACCUCCCAUCCCUUCUUCAAGCUUAGCCAGAUCCUAUCUCGCCCAGUGAAAUCACA | 0.544 |
| AUUUUGACAAAUAUAUUUAUAACUACAUAUUAAAAGAAAAUAAAAUGAGUCAUUAUUUUAAAGAUAACUAAGACCUUUCUAUCUUAUUUCCUCUUCCAUACUCUUGAAUG | 0.445 |
| UGUCUGCAUAUUGCAUAGCCUUGUCCUCCUGUGUGCCUGAGCUCCUCCCUUUUCAAUAAGAUUAUUAGUCGUGCAUGUCUGUGAGCUGCCUUUCAUCACCAUUUUUCCUG | 8.83 |
| GCUGUCUUUUCUACGAUAGAGAAUCUUUAUUUGUAAGGAAUGUUUCAGGCCUAGACAUACAUGAAACUUAUUUUUGAGGUUUUUGUGCUUUUGGUAUUUUCAUGUGUUAC | 0.305 |
| UUUUUAAACACUUUUUGAAAUAGAGUGUGCUGUGUUUAAAACCAAAAAUAUGCAUGUUGUCUCUGAAAAGUAGGCAUUGAAACAGACUUUUUUGUAGUCAGUGUUAAUAA | 10.3 |
| AGUUGGGUUUCUGGCUUGAGAUGAAUCCAAGCAGCAGAAUGAGCCAGGAGUAGCAGGAGAUGGGCAAAGAAAACUGGGGUGCACUCAGCUCUCACAGGGGUAAUCAUCUC | 0.487 |
| UGAUGAUUGUAGAUUAAGCUGAAACAUAUAAUGAGAGCAAUGAGAACAAGUUUGUUUUGCCUGAUACAGUAUUAUAAUUGGUUUUGUAACUUUGAAGUCUUGUAUGAUUU | 1.29 |
| AUGCCGCAGUUGGACAGCAUAGGACGGCUUGGUUCUGUUUCAUUGUGUUUGACAAUGUUGCAGUUUAAAUGAUAAUGUUUAAAUCAAUUGGUACUUGCCUGUAGUGUUAA | 2.59 |
| AACUCACCCCAGCAUAUUUUUAGGCCUCAUCUCAGUGCCUAUGAGGGGCCUGCCAGAAAAGUCACUAACCUGUCUCAGUGUGGCCUUGUCCAGCCUUGUGUUUUCUGUAA | 1.63 |
| CCAGGAGUAGAAUAUGAAGUGCUAAAUCUGAAUGUAAGAAAAAUAAUAGUAUUGAAUGGGGUAUUUACUGUUGAUUAACCUCCUUAGAGAAAAUUAAUGAAUGAGAUGAC | 7.32 |
| CAGUCUCUUUAACGACAGCUAUAGAUGCUGGAUGUGUUCCGAUGACUUAGGUCAUGUCACAUUGUUGAAGCCAUUCAUUCUUGAGAUGAUUCUGUACAGGAGUGCUCCUA | 0.204 |
| UGCUAAAAAUGGUAACCUCCUUUGAGCAUUGCAGAAAGAGGGUUCUGUUUCAAAUUGGGCUGACCGUAAAAGCAAUUUUGAUGUCUUUCAAACUACCAUAAAGGGAUUUU | 0.349 |

Block 5
Target: ABI1, truncated, D143A, DHFR fusion (Arabidopsis thaliana)
Method: DHFR PCA, deep sequencing
Matrix: yeast
Notes: methotrexate growth selection, single substitutions
Together with: (+)-ABA 0.11 µM
Relative to: wild-type fitted maximum
Reading: higher = stronger binding
Parent: PYL1, truncated, DHFR fusion (Arabidopsis thaliana); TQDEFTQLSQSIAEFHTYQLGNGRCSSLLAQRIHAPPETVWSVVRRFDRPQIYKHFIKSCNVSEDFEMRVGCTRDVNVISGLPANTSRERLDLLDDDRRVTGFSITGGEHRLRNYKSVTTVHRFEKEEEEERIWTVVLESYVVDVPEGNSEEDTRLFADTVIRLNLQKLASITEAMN
| Substitution | relative binding score |
| --- | --- |
| Y115W | -7.09% |
| M68R | 1.65% |
| S11L | 6.77% |
| T119A | -5.77% |
| G107R | 6.79% |
| Y53A | -5.03% |
| S11D | 32.5% |
| T119S | -4.97% |
| K58V | 3.06% |
| Q167S | 24.6% |
| C72P | 5.76% |
| R132T | 49.8% |
| P36E | 17.9% |
| S171K | 50.6% |
| R46G | -4.68% |
| Y53F | 4.44% |
| R99N | -1.13% |
| V142R | -3.06% |
| T73W | 18.8% |
| C60S | 3.45% |
| R123Q | 70.7% |

Block 6
Target: Histone acetyltransferase KAT6A, both winged helices, GST fusion (KAT6A, Homo sapiens, UniProt Q92794, residues 1-181)
Method: protein binding microarray
Form: double-stranded DNA, one strand shown
Matrix: in vitro
Tested at: not given
Notes: 8-mer, flanks averaged, mean of 2 arrays, mostly near background
Relative to: not given
Reading: higher = stronger binding
Residues (chain): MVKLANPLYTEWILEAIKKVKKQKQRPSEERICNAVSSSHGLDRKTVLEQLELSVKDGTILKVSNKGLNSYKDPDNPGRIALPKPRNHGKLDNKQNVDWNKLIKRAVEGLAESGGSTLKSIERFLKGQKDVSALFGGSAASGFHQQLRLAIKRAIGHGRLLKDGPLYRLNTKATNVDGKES
| Sequence | E-score |
| --- | --- |
| ATGTTATG | -0.0341 |
| AAAGGCAA | -0.21 |
| CGCGTGAC | 0.279 |
| AGGGATGG | -0.15 |
| ACGGGTAT | 0.212 |
| GGATATCC | 0.114 |
| GTTCCGAA | 0.162 |
| ACGTTTTC | 0.163 |
| GGCAACAA | -0.115 |
| CATGTTAG | -0.136 |
| CGGTCCTC | 0.185 |
| ATGCCAGA | -0.079 |
| CGAAGGAA | 0.0557 |
| ACCGTTAT | 0.0853 |
| CATCAAAC | -0.0677 |
| CCCGGAGA | 0.129 |
| GATTATGC | 0.0934 |
| ACGGGCGC | 0.325 |

Repeated from above (block 3):
| Sequence | E-score |
| --- | --- |
| CATGTACG | 0.25 |
| GCATGCGA | 0.409 |
| CATGGTCA | 0.356 |
| ATAACACG | 0.383 |
| CCCACCCG | 0.333 |
| CGCATGTA | 0.396 |
| ATGCGCAT | 0.377 |
| ACATGCAA | 0.281 |
| ACACGCCA | 0.305 |
| CCCACCCA | 0.378 |
| CATGAGGC | 0.363 |
| CGGTCACG | 0.263 |
| ACGCGGCA | 0.334 |
| AAACGTGC | 0.415 |
| CCCCGCAC | 0.362 |
| ACCTCACG | 0.254 |
